Results collected from several papers.
Each numbered part is a random draw from the data of one study; scales do not carry over between parts.

Set 1 — method: universal PBM; molecule type: double-stranded DNA, one strand shown; medium: in vitro; concentration: 600 nM; reading: higher = stronger binding
Target: Sal-like protein 4, full length isoform A (SALL4, Homo sapiens, UniProt Q9UJQ4, residues 1-1053)
UniProt Q9UJQ4, sequence (whole entry, looked up): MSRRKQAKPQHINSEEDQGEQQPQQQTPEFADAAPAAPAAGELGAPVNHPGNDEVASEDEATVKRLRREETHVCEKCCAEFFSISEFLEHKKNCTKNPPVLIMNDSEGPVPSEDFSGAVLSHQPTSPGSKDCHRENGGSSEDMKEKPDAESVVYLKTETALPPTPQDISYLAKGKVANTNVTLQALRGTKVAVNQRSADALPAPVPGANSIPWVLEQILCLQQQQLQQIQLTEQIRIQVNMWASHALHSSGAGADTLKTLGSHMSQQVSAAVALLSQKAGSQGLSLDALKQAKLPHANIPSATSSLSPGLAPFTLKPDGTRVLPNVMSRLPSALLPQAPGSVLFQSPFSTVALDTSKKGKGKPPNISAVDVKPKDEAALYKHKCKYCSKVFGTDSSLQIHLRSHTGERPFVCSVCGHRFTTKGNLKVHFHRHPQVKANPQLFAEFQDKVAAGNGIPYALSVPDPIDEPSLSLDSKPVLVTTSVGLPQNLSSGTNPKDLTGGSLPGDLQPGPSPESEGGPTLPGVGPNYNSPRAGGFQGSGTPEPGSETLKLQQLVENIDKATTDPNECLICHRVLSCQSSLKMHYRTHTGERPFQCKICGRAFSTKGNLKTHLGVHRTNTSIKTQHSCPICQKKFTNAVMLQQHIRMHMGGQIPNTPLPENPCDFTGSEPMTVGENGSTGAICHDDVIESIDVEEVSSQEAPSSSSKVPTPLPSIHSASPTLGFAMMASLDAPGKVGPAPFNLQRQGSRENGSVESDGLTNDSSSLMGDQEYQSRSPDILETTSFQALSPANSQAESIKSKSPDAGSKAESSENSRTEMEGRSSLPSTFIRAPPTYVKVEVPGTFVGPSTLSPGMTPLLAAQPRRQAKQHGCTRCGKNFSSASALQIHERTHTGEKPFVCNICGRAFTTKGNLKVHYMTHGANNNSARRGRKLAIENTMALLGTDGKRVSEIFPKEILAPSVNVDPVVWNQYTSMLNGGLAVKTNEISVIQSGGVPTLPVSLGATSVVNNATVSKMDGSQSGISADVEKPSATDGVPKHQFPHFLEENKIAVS
Notes: 8-mer, flanks averaged, mean of replicates
Strand | E-score
ACCCTTTC | 0.0602
CGCAGGAG | -0.145
CAAAGGAA | 0.219
ACGGGTTA | -0.0525
CCACTGTC | -0.249
ACGCTTCA | -0.0262
CATCGCTA | 0.00949
CCGGGGTA | -0.137
ACAGGACG | -0.176
CAACTGGA | -0.205
CAATGTGC | 0.0773
ACGAGCGC | -0.206
AAGGGAGG | -0.152
AGATCTCG | -0.12
ACGGAACC | -0.132
AACGGACT | 0.0643
CTAAAACC | -0.0178
CCTACTAG | -0.0733
GGTCCGTA | -0.207
ACATGGCC | -0.00783
ACGGTTGG | -0.186

Set 2 — method: RNA Bind-n-Seq; molecule type: RNA; medium: in vitro; concentration: 365 nM; reference: no-protein control; reading: higher = stronger binding
Target: RNA binding protein fox-1 homolog 2, RRM domain, GST-SBP tag (RBFOX2, Homo sapiens, UniProt O43251-10, residues 100-194)
Notes: natural RNA segment, single round, ends assumed
Constant ends, left off below: GGGAGUUCUACAGUCCGACGAUC … UGGAAUUCUCGGGUGCCAA
Construct (chain): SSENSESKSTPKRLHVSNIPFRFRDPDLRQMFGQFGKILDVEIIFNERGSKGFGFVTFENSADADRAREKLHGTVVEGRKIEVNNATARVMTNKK
Strand | RBNS enrichment (R)
UGUAAAGACAAUGUAGAAAACACACUAAUUACUGUUUGUAGUGUCUUUGGAUGCUCACGGGUUCUGUUCCAGUGCUAUUUUCUAUGAAUAUAGCAGCAUCGUUUCCUUUU | 0.354
CAAAAUCCUGCAGAAUGUAAGUAAGCUCUGCUUUAUAAGAUGGGUUCACCUUCAUCGCAGACUGAAAGUUUCAGUUUUUAUUUUUUUCAGAAAGCACGAAAAAUUAUUUA | 0.745
CUGGACAGCCAACUAGAACUCUGCAUCCUGUCACAGGAAGCACCUCAUAAGAAGGGAUGGGGAGGGAAGGAAGUCGCCUUGUUUACAGACCUAUUUUUGUUGUCUUGUUC | 0.621
GAAGAUCCAGAUCGUACAAAAAUUAGAAAAAGAAAGAAUAAGAAGGGUCUGGUCCCAGUUCUGACUCGGCCAUUCUUACAGCUCUUUCUGGCUUUGAGUUUGCUUGUGGA | 0.718
AAAAAAAAAAAAAAAAAAAAAAAGAAAAACUGUGGAAGUAGCCAGCCUUGUACGACUGCAAAAGCAGCCUCGCUGACUGGAUUUUUUUUUUUUUUAAAGAUUUAUUUAUA | 1.14
ACUGUGCUAGAUCUUCACUUCGGUGGCGAGUUAUAUCCUACAGCCCUGACACAUCAGGCAAUGAAUAAUGGGGCAGAUGACAGGCUGCUUGGUGUCAUUUUCAGGCGGGC | 0.718
UUCAGUACUGGGUGGUUCAGCAGGGAAGCCGGGUGGGACCAGUGUGUCUGUCAUGAAACCACUAACUGCAUUCCUGACUGAAGAGCCAUCUGUCAUUUAUUGGGGAAGGU | 0.712
ACACAUGGUUUGGAUGCUUCUAUAUUGGCCCUGCCCAGGUAGAAAGGGUAAGAAGAACAUGUAGAAUCCAGAUUCCCUGAGUGUGAGGGACCCAUGGUGCAUUUGUAAUA | 0.804

Set 3 — method: RNA Bind-n-Seq; molecule type: RNA; medium: in vitro; concentration: not given; reference: input RNA pool; reading: higher = stronger binding
Target: RING finger protein unkempt homolog, zinc fingers 1-6, GST-SBP tag (UNK, Homo sapiens, UniProt Q9C0B0, residues 30-357)
UniProt Q9C0B0, sequence (30-357, looked up): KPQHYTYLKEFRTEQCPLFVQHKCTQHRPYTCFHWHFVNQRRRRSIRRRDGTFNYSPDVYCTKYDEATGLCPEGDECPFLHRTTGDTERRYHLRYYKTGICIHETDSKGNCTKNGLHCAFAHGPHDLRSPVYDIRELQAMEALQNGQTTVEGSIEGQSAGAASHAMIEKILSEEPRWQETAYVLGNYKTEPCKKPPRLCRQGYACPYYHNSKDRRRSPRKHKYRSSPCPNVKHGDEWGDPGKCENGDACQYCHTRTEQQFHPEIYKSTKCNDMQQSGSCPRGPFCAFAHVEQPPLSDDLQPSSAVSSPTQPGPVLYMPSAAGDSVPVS
Notes: RNA with constant flanks, human and mouse sites, ends assumed
Constant ends, left off below: GGGAGUUCUACAGUCCGACGAUC … CAACAGAGGAUUGAGCAUCA
Strand | bound/input enrichment
GUCAACUAUGAAGAAUUCGUACAGAUGAUGACUGCAAAAUGAAGACCUACUUUCAACUCCUUUUUCCCCCCUCUAGAAGAAUCAAAUUGAAUCUUUUACUUACCUCUUGCAAAAAAAAGA | 1.67 ratio
GGACAGUCUCAGCCCCCCCUCCAACAGAAUCAGACUUCAUCGCCUGAUUCUUCCAAUGAAAAUUCCCCGGCAACUCCCCCAGAUGAGCAAGGUCAAGGUGAUGCCCCACCACAGCUUGAA | 0.541 ratio
CUGCGGGCCACAGGGCAAAAUCGCCAUAGGCCAAGGUGCAUAUAGAAAACAAAGGAGCAUUAAGCCCAAUCUAUGUCGUGUUUUCAAGGAAGAAAACGGAAAUGUGUAGUCAAGCUUUUU | 0.59 ratio
UGAAGCCAGCGCUCUGCGCCUGGAUGAAGACAGCGAACAUCCUCCCAUGAUUCUCCGGACUGACUGAUCCUGACCUGUGAACUCUGGCCCAGGAGCAGACAACACUGCCUGGCUGAGGAC | 0.201 ratio
GGUGCUUAUAAUUAUCCUUUCACUUGGAACACACCCUCUGCUCCCCCUGGCUAUAACAUUGCUGUCAAACCAGAUCAGAUCCAGUACACUGAGCUGUCCAAUGCUAAGAUUGCCUACAAG | 0.178 ratio
UGCUGUGCGCUCCUGGGAGCUUGACGGAGGCUAAGCCUCCACGGUGCUGUGAGGGGUCCAUAGUAUUUUUUUGCUGCCUCUGAGUCCCCAAGGCCUUUAAGCAGAAGUGACAGUAGAUGC | 0.48 ratio
CAUAAUAUUGACAUUCCUACAACACAACAGGUGCCACACAUUGAAGCACUUCUGAAAAGAAAGCUAUCAGAACAAGAAGAACUGAAGAAAAAACCUAGAAGAUCGUGUACUCUUCCAAAC | 0.324 ratio
GGUUUCCUGGCCUGUUGCAGCCAUGGUGCAUUGCAGUUGCGUGUUGUUCAGAAAGUAUGGAAAUUUCAUCGAUAAGCUAAGACUCUUCACCAGGGGAGGAUCCGGUGGAAUGGGUUAUCC | 0.125 ratio

Set 4 — method: protein binding microarray; molecule type: double-stranded DNA, one strand shown; medium: in vitro; concentration: not given; reference: not given; reading: higher = stronger binding
Target: Histone acetyltransferase KAT6A, both winged helices, GST fusion (KAT6A, Homo sapiens, UniProt Q92794, residues 1-181)
Notes: 8-mer, flanks averaged, mean of 2 arrays, mostly near background
Construct (chain): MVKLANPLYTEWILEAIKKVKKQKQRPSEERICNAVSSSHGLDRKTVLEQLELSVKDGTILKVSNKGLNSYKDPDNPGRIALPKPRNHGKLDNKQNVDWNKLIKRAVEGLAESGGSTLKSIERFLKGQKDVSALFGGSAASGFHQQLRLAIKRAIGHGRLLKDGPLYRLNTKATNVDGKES
Strand | E-score
ACACACAG | -0.136
AGGAAAGC | 0.0319
CCACATTC | -0.167
AAGTGACT | -0.0993
ACCAGCGC | 0.187
GCCAGGAA | 0.0644
GCACCAAA | -0.133
GATCTGTA | -0.0869
AGACATGC | 0.0272
ATGTAGAG | -0.209
ATGCAACC | 0.00872
TAGCGAGA | 0.0491
AACTAATC | -0.0617
GAAAATTA | -0.128
ACCGAGCG | 0.24
ACATCGGA | 0.0247
AGCGGCAA | 0.284
ATACCCGC | 0.29
GAGAATAC | -0.0144
AGTGTCTC | -0.143
CAGGAGGG | -0.298
ATTGTCAG | -0.0199
CCCAGGGA | -0.121

Some of these lines once more (set 4):
Strand | E-score
GATCTGTA | -0.0869
AGACATGC | 0.0272
ATGTAGAG | -0.209
ATGCAACC | 0.00872
TAGCGAGA | 0.0491
AACTAATC | -0.0617
GAAAATTA | -0.128
